Results pooled from the literature.
Lines come from different studies, so protocols differ.
Target: Phosphatidylinositol 5-phosphate 4-kinase type-2 gamma (PIP4K2C, Homo sapiens, UniProt Q8TBX8)

With `C=CC(=O)N1CCc2ccc(-n3c(=O)ccc4cnc5ccc(-c6cnn(C)c6)cc5c43)cc21` the remaining binding was 100% (KINOMEscan; 1 µM; reference: DMSO control).
`CNC(=O)C1CCN(c2cc(C)c(F)cc2NC(=O)c2ccc(-c3cc(O)ccc3C)c(C)c2)CC1` gave a remaining binding of 100% (binding, competition with immobilised ligand; 1 µM).
For `Cn1cncc1C#Cc1ccc2[nH]c3c(c2c1)-c1nc(N)ncc1CC3`, the remaining binding was 5.9% (binding, competition with immobilised ligand; 1 µM).
With `CCN1CCN(Cc2ccc(C(=O)Nc3ccc(C)c(NCc4cnc5[nH]ccc5c4OC)c3)cc2C(F)(F)F)CC1` the remaining binding was 20% (binding, competition with immobilised ligand; 1 µM).
`CC(C)C(O)C#Cc1ccc2[nH]c3c(c2c1)-c1nc(N)ncc1CCC3` (centres unmarked) has a remaining binding of 1.9% (binding, competition with immobilised ligand; 1 µM).
With `COc1cc(Nc2nccc(-c3cnn4nc(OC)ccc34)n2)cc(C(F)(F)F)c1` the remaining binding was 56% (binding, competition with immobilised ligand; 1 µM).
`CCC(O)(C#Cc1ccc2[nH]c3c(c2c1)-c1nc(N)ncc1CCC3)CC` gave a remaining binding of 15% (binding, competition with immobilised ligand; 1 µM).
`C=CC(=O)N1CCCC(n2c(=O)c3ncccc3n(Cc3ccc(Oc4ccccc4)cc3)c2=O)C1` (centres unmarked) has a remaining binding of 99% (cell-free assay, competition with immobilised ligand; 1 µM).
With `CC(C)=CC1OC(C)(C)C2C=C3C(=O)C(Cl)=CC(O)C3C3C(O)C4OC4C(=O)C132` (centres unmarked) the remaining binding was 86% (cell-free assay, competition with immobilised ligand; 10 µM).
For `CNC1C[S+]2CC[S+]3CC[S+](C1)[Ru-4]321([N]=C=S)[n]2c3ccc(OC)cc3c3c4c(c5cc(F)c[n+]1c5c32)C(=O)NC4=O` (centres unmarked), the remaining binding was 95% (KinomeScan; 0.1 µM; reference: untreated).
The remaining binding of `Nc1ncc2c(n1)-c1c([nH]c3ccc(C#CC4CC4)cc13)CCCC2` is reported as 88% (binding, competition with immobilised ligand; 1 µM).
With `Cc1ccc(-c2c(/C=C(\C#N)C(=O)NC(C)C)n(CCCO)c3ncnc(N)c23)cc1` the remaining binding was 95% (cell-free assay, competition with immobilised ligand; 1 µM).
`COc1c(Cl)cccc1Nc1c(-c2ccncc2C#C[C@@]2(C)CCCN2C(=O)/C=C/CN(C)C)[nH]c2c1C(=O)NCC2` gave a remaining binding of 100% (binding, competition with immobilised ligand; 3 µM).
With `Cc1cnc2nc1Nc1cccc(c1)COC/C=C/COCc1cc(ccc1OCCN1CCOCC1)N2` the remaining binding was 43% (binding, competition with immobilised ligand; 0.1 µM).

A few entries again:
`CNC(=O)C1CCN(c2cc(C)c(F)cc2NC(=O)c2ccc(-c3cc(O)ccc3C)c(C)c2)CC1` gave a remaining binding of 100% (binding, competition with immobilised ligand; 1 µM).
For `Cn1cncc1C#Cc1ccc2[nH]c3c(c2c1)-c1nc(N)ncc1CC3`, the remaining binding was 5.9% (binding, competition with immobilised ligand; 1 µM).
